Experimental data pooled from the literature.
Protocols differ between the studies behind these lines. ± gives the spread as reported.

Compound | assay | test system | setting | scale | measurement | result
CCCC[C@H](NC(=O)CNC(=O)CNC(=O)CN1CCN(CC(=O)O)CCN(CC(=O)O)CC1)C(=O)N[C@H]1CC(=O)NCCCC[C@@H](C(N)=O)NC(=O)[C@H](Cc2c[nH]c3ccccc23)NC(=O)[C@H](CCCNC(=N)N)NC(=O)[C@@H](Cc2ccccc2)NC(=O)[C@H](Cc2c[nH]cn2)NC1=O [gallium-67 labelled] | – | female C57 mice, B16/F1 melanoma | intravenous, 0.037 MBq, 2 h | baseline: tumour over liver | tumour to tissue ratio | 42.4
CCCC[C@H](NC(=O)CNC(=O)CNC(=O)CN1CCN(CC(=O)O)CCN(CC(=O)O)CC1)C(=O)N[C@H]1CC(=O)NCCCC[C@@H](C(N)=O)NC(=O)[C@H](Cc2c[nH]c3ccccc23)NC(=O)[C@H](CCCNC(=N)N)NC(=O)[C@@H](Cc2ccccc2)NC(=O)[C@H](Cc2c[nH]cn2)NC1=O [copper-64 labelled] | – | female C57 mouse, B16/F1 melanoma, spleen | intravenous, 0.037 MBq, 24 h | – | tissue uptake | 0.15 ± 0.06 %ID/g
COc1cc2c(cc1OC)CN(CCCCn1ccc3cc(OCC[18F])ccc31)C2 | – | male ICR mice | intravenous, 60 min post-injection | – | kidney uptake | 6.18 ± 1.02 %ID/g
COC(=O)C(c1ccccc1Cl)N1CCC(SCC(=O)c2cccc(OC)c2)C(=CC(=O)O)C1 (mixture of isomers) | HPLC-MS/MS | feline EDTA plasma | 100 ng/mL, 12 h, -80 °C, storage stability | – | deviation from nominal | 2%
CCCCCCCCCCCC(=O)N[C@@H](CCCCN)C(=O)N[C@@H](CCCCN)C(=O)N[C@@H](CCCCN)C(=O)N[C@@H](CCCCN)C(=O)N[C@@H](CCCCN)C(N)=O | dynamic light scattering | self-assembled micelles | 25 °C | – | hydrodynamic radius | ~190 nm
CCc1cc(Nc2nc(-c3ccc(-n4cnc(C)c4)c(F)c3)cs2)c(C)cc1C | – | human, both sexes, plasma | oral, 200 mg, day 1, multiple dose, geometric mean | – | terminal elimination rate constant | 3.03e-05 s⁻¹
Cn1c(=O)oc2ccc(-c3ccc(CC(C#N)NC(=O)C4CNCCCO4)c(F)c3)cc21 (stereo not shown) | – | human | oral, 10 mg once daily, TEAE, multiple ascending dose | – | abdominal pain incidence | 11.1%
C(=NNC1=NCc2ccccc2-c2c1[nH]c1ccccc21)c1ccccn1 | UV-vis titration | DMSO-water 30 to 70% w/w | 298 K, ionic strength 0.10 M KCl | – | pKa2 | 5.03 ± 0.01
C#CCOc1ccc(/C=C2\SC(=O)N(CC(=O)NCc3ccccc3)C2=O)cc1 | inverse Kirkwood-Buff integrals | binary solvent mixture | 298.15 K, mole fraction x1 0.80 | – | Kirkwood-Buff integral G2,3 | -365 cm³/mol
NC12CNCCNCC(NCc3ccc(CNC(=O)CCCC(=O)NCc4ccc(-c5nncnn5)cc4)cc3)(CNCCNC1)CNCCNC2.[64Cu+2] | OLINDA dosimetry | heart wall | pretargeting, 24 h interval | – | absorbed dose | 0.0429 rad/mCi
COC(=O)c1ccc2c(c1)NC(=O)/C2=C(\Nc1ccc2c(c1)CCN2C(=O)CN1CCOCC1)c1ccccc1 | metabolic stability | cynomolgus monkey, liver microsomes | 10 µM, pH 7.4 | – | microsomal CLint | 440 µL/min/mg
Cc1cc(N)nc(C[C@@H]2CNC[C@@H]2OCCCCCc2cccc(N)n2)c1 | in vitro metabolic stability | – | – | – | metabolic rate | 0.02 nmol/min/mg protein
Oc1ccc2ccccc2c1/N=N/c1ccc(/N=N/c2ccccc2)cc1 | – | rat whole blood | 16.0 µg/L, 30 days, -20 °C, long-term storage | – | stability deviation | 0.8%
CCC1(CC)C[C@@H](NC(=O)Nc2cccc3c(C)nccc23)c2cc(F)ccc2O1 | – | rat, abdomen | oral gavage, 41 mg/kg, 60 min | baseline: vehicle | decrease in body temperature | 1.6 °C
CC(C)(O)c1ncc([S@](N)(=O)=NC(=O)Nc2c3c(cc4c2CCC4)CCC3)s1 | – | healthy human | oral, 30 mg once daily, day 1, capsule formulation, median | – | Tmax | 1.27 h
Brc1ccc(Nc2nc(NN=Cc3c[nH]c4ccccc34)nc(N3CCOCC3)n2)cc1 | – | rat liver microsomes | – | – | metabolic stability | stable
CC(C)[C@H](NC(=O)CNC(=O)[C@H](CCC(N)=O)NC(=O)[C@H](C)N)C(=O)O | LC-MS/MS | human, plasma | intravenous, 10 mg/kg three times daily, day 3, first dose, 10 min infusion, geometric mean | – | AUC(0-inf) | 273 µg·h/L
NCCCC(=O)OCC(=O)c1ccc(O)c(C(F)(F)F)c1.O=C(O)C(F)(F)F | photolysis, measured: GABA appearance | unbuffered water | – | – | quantum yield | 0.16
COc1cc(NC(C)=O)c2c(c1O)-c1c(OC)c(OC)cc3c1C(C2)N(C)CC3 (stereo not shown) | – | rat, plasma | 0.5 µg/mL, 40 d, -20 °C, long-term storage | – | remaining compound | 95.4 ± 3.2%
CC1=C(C=O)C(C)(C)CC=C1 | – | rat blood | 1000 nM, 60 min | – | blood-to-plasma ratio | 0.24 ± 0.03
CCCOc1ccc(S(N)(=O)=O)cc1-c1nc2c(CCC)nn(C)c2c(=O)[nH]1 | – | healthy male humans, plasma | oral, 200 mg udenafil | – | terminal half-life | 710 ± 224 min
NCCCC(=O)OCC(=O)c1cc(F)c(O)c(F)c1.O=C(O)C(F)(F)F | photolysis, measured: GABA appearance | aqueous HEPES buffer with LiClO4 | pH 8.2 | – | quantum yield | 0.02

Compound | assay | test system | setting | scale | measurement | result
COc1cc(CC(=O)N/C=C/c2ccc(C(F)(F)F)cc2)ccc1O | eye-wiping | C57BL/6 mice, both sexes | ocular instillation, 1 min | – | moderate pain-producing concentration | 0.101 mg/mL
COCCOCCOCCOCCOCCOCCOCCOCCOCCOCCOCCOCCNC(=O)CCC1(Cc2ccccc2)c2ccccc2-c2ccc(-c3sc(-c4c5c(c(-c6sc(-c7ccc8c(c7)C(CCC(=O)NCCOCCOCCOCCOCCOCCOCCOCCOCCOCCOCCOCCOC)(Cc7ccccc7)c7ccccc7-8)c7c6OCCO7)c6nsnc46)N=S=N5)c4c3OCCO4)cc21 (stereo not shown) | DLS and TEM | aqueous solution | – | – | particle size | 220 ± 80 nm
N=C(N)NCCC[C@@H]1NC(=O)[C@H](Cc2c[nH]c3ccccc23)NC(=O)[C@@H](CC2CCCCC2)NC(=O)[C@@H]2CCCN2C(=O)[C@@H](NC(=O)CCc2ccccc2)CCCNC1=O | – | C57BL/6J mice, plasma | intraperitoneal, 1 mg/kg, two-compartment model | – | distribution rate constant k12 | < 0.001 h⁻¹
CC(C)c1cnc(-c2cc(Cl)ccc2F)cc1Nc1ccncc1C(=O)NC(CO)CO | – | human, advanced solid tumour | oral, dose not given, phase I monotherapy | – | ALT increase incidence, all grades | 23.8%
CC(C)(C)NCC(SS(=O)(=O)O)c1ccccc1 (stereo not shown) | – | female Swiss Webster mice, plasma | oral, 100 mg/kg, includes mean input time | – | mean residence time | 1.83 h
CC/C=C\C/C=C\C/C=C\C/C=C\C/C=C\CCCCOC(CC)C(=O)O (stereo not shown) | 14C radiolabel | Wistar rats male, muscle | oral, 100 mg/kg, 8 h | – | tissue concentration | 4.8 µg/g
COc1cc(C)c(Cc2ccc(O)cc2)cc1[C@@H]1S[C@H](CO)[C@@H](O)[C@H](O)[C@H]1O | – | Japanese T2DM patients, urine | 0.5 mg luseogliflozin, day 1, once daily | baseline: dose | urinary excretion 0-24 h | 5.22 ± 0.848%
NCCCC(=O)OCC(=O)c1ccc(O)cc1F.O=C(O)C(F)(F)F | photolysis, measured: rearranged acid appearance | unbuffered water | – | – | quantum yield | 0.26
CC[C@H](C)[C@H](NC(=O)[C@H](CC(C)C)NC(=O)[C@H](Cc1c[nH]c2ccccc12)NC(=O)[C@H](C)NC(=O)[C@@H](NC(=O)[C@H](Cc1ccccc1)NC(=O)[C@H](CC(=O)O)NC(=O)[C@H](CCCNC(=N)N)NC(=O)[C@H](C)NC(=O)[C@H](C)NC(=O)[C@H](CC(C)C)NC(=O)[C@H](C)NC(=O)[C@H](CC(=O)O)NC(=O)[C@H](CC(C)C)NC(=O)[C@@H](NC(=O)[C@@H](NC(=O)[C@H](C)NC(=O)[C@H](CC(C)C)NC(=O)[C@H](CCC(=O)O)NC(=O)[C@H](CO)NC(=O)[C@H](CO)NC(=O)[C@H](Cc1ccccc1)NC(=O)[C@@H](NC(=O)CNC(=O)[C@H](CCC(=O)O)NC(=O)CNC(=O)[C@@H](N)Cc1cnc[nH]1)[C@@H](C)O)[C@@H](C)O)[C@@H](C)CC)[C@@H](C)CC)C(=O)N[C@@H](C)C(=O)N[C@H](C(=O)N[C@@H](CCCCN)C(=O)N[C@H](C(=O)N[C@H](C(=O)N[C@@H](CC(=O)O)C(=O)N[C@@H](CCCCN)C(=O)N[C@@H](CCCCN)C(=O)N[C@@H](CCCCN)C(=O)N[C@@H](CCCCN)C(=O)N[C@@H](CCCCN)C(=O)N[C@@H](CCCCN)C(N)=O)[C@@H](C)O)[C@@H](C)CC)[C@@H](C)O | – | healthy humans, plasma | subcutaneous, 5 mg once weekly | – | effective half-life | 124 h
COc1ccc(/C=C/c2ccc(-c3ccc(C)cn3)nc2)cc1 | TCSPC | water, HEPES 100 mM | pH 7.4, zinc complex | – | radiative decay rate constant | 0.12 ns⁻¹
CCC(=O)N[C@@H](C)C(=O)OCC(=O)N[C@@H](C)C(=O)O | – | water | pH 6, 65 °C | – | depolymerization half-life | 29.4 h
O=C([O-])CN1CCN(CC(=O)[O-])CCN(CC(=O)NC[C@H]2CC[C@H](C(=O)N[C@H](Cc3cnc4ccccc4c3)C(=O)NCCCC[C@H](NC(=O)N[C@@H](CCC(=O)O)C(=O)O)C(=O)O)CC2)CCN(CC(=O)[O-])CC1.[64Cu+2] | PET/CT dosimetry OLINDA/EXM | healthy volunteers, liver | up to 24 h post-injection | – | absorbed dose | 0.0987 mGy/MBq
COC(=O)c1ccc(CCc2cc3cc4nc(c(OC)c5[nH]c(cc6nc(cc2[nH]3)CC6(C)C)cc5CCCNC(=O)OC(C)(C)C)C(=O)C4(C)C)cc1 | – | DMF | room temperature | – | B band absorption maximum | 397 nm
O=c1nc(NO)ccn1[C@@H]1O[C@H](CO)[C@@H](O)[C@H]1O | measured: CYP2C8 | normal rat, liver | oral, 80 mg/kg twice daily, 5 days | baseline: untreated rats | protein level | 0.6 fold
COc1ccc(OC)c(/C(=C\c2ccc(O)c(O)c2)C(=O)NCCc2ccc(O)cc2)c1 | – | mouse heparinised whole blood | 2 µg/mL, 120 min | – | conversion to FLZ | ~30%
O=C(O)[C@@H]1C[C@@H](O)CN1C(=O)[C@@H]1CCCN1 | potentiometric titration | – | 37 °C, MA3 complex, together with: Fe(III) | – | log beta | 31.3
CN1CCC[C@]1(C)/C=C/S(=O)(=O)NC(=O)Nc1c2c(cc3c1CCC3)CCC2 | – | human, urine | oral, 25 mg single dose | – | percent of dose in urine | 84.8%
NS(=O)(=O)c1ccc(-n2cc(Cn3c(=O)c(Cc4ccccc4)nc4ccccc43)nn2)cc1 | MTT | rat primary colonocytes, Albino rat, male | 72 h, concentration at 100% viability | – | safe concentration | 0.193 ± 0.017 µM
CCCC(CCC)NC(=O)c1ccc(OS(=O)(=O)O)c(OC)c1 | – | male Sprague-Dawley rats, plasma | oral, 50 mg/kg of parent drug | baseline: 50 over 20 mg/kg dose | Cmax ratio | 2.19
CCCCCCCCCCCCCCCCCC(=O)Nc1ccn(C2OC(CO)C(O)C2(F)F)c(=O)n1 (stereo not shown) | – | athymic nude mouse, female, BxPC-3 xenograft, plasma | intravenous, 25 mg/kg gemcitabine equivalent | – | total clearance | 26.7 ± 2.3 mL/min/kg
CCCC[C@H](NC(C)=O)C(=O)N[C@H]1CC(=O)NCCCC[C@@H](C(=O)N[C@@H](C(=O)N2CCC[C@@H]2C(N)=O)C(C)C)NC(=O)[C@H](Cc2c[nH]c3ccccc23)NC(=O)[C@H](CCCN=C(N)N)NC(=O)[C@@H](Cc2ccc3ccccc3c2)NC(=O)[C@@H]2CCCN2C1=O | – | healthy dogs, plasma | subcutaneous, 2.25 mg/kg per day, day 1, 2 h post-dose, median | – | plasma histamine | 9.25 ng/mL

Some of these lines once more:
Compound | assay | test system | setting | scale | measurement | result
Brc1ccc(Nc2nc(NN=Cc3c[nH]c4ccccc34)nc(N3CCOCC3)n2)cc1 | – | rat liver microsomes | – | – | metabolic stability | stable
CCCC(CCC)NC(=O)c1ccc(OS(=O)(=O)O)c(OC)c1 | – | male Sprague-Dawley rats, plasma | oral, 50 mg/kg of parent drug | baseline: 50 over 20 mg/kg dose | Cmax ratio | 2.19
COc1ccc(/C=C/c2ccc(-c3ccc(C)cn3)nc2)cc1 | TCSPC | water, HEPES 100 mM | pH 7.4, zinc complex | – | radiative decay rate constant | 0.12 ns⁻¹
COc1ccc(OC)c(/C(=C\c2ccc(O)c(O)c2)C(=O)NCCc2ccc(O)cc2)c1 | – | mouse heparinised whole blood | 2 µg/mL, 120 min | – | conversion to FLZ | ~30%
